Measurements of several laboratories.
Each line is one published result; not all experiments were run side by side. Numbers after ± are the reported error.

| Compound | test | system | conditions | unbound fraction |
| --- | --- | --- | --- | --- |
| CC[C@H]1OC(=O)[C@H](C)[C@@H](OC2CC(C)(OC)C(O)C(C)O2)[C@H](C)[C@@H](OC2OC(C)CC(NC)C2O)C(C)(O)C[C@@H](C)C(=O)[C@H](C)[C@@H](O)C1(C)O (some centres unmarked) | equilibrium dialysis | human liver microsomes 0.5 mg/mL | 2 µM, 20 h, 37 °C, scaled to 1 mg/mL | 0.51 |
| Cc1cc(Nc2ccc(S(F)(F)(F)(F)F)cc2)n2ccnc2n1 | rapid equilibrium dialysis | diluted mouse plasma | 2 µM | 0.027 |
| Cc1cc(C)c(CNC(=O)c2cc(Cl)c3c(c2C)O[C@@](C)([C@H]2CC[C@H](N(C)C)CC2)O3)c(=O)[nH]1 | ultracentrifugation | solution, alpha-1 acid glycoprotein, 0.1% | 5000 ng/mL, 160 min | 0.233 |
| CC(C)c1nc(N(C)S(C)(=O)=O)nc(-c2ccc(F)cc2)c1/C=C/[C@@H](O)C[C@@H](O)CC(=O)O | in vitro | liver | – | 0.125 |
| CC[N+]1(C)CCN(c2ccc(C(=O)Nc3cccc(C)n3)cc2)CC1 | – | human plasma | – | 0.46 |
| CCCOc1ccc([C@H]2CNC(=O)N2c2ccc3[nH]cnc3c2)cc1 | equilibrium dialysis | diluted human serum | – | 0.46 |
| CC1(C)C(/C=C/C=C/C=C/C=C2\N(CCCCS(=O)(=O)O)c3ccc4ccccc4c3C2(C)C)=[N+](CCCCS(=O)(=O)[O-])c2ccc3ccccc3c21 | – | mouse whole serum | 4 h | < 0.1 |
| CC(=O)N1CCN(c2ccc(OCC3COC(Cn4ccnc4)(c4ccc(Cl)cc4Cl)O3)cc2)CC1 (centres unmarked) | equilibrium dialysis | mouse plasma | 1 µM, 6 h | 0.0074 |
| Nc1c(CC(=O)O)cccc1C(=O)c1ccc(Br)cc1 | in vitro | plasma | – | 0.005 |
| CO[C@H]1C[C@@H]2CC[C@@H](C)[C@@](O)(O2)C(=O)C(=O)N2CCCC[C@H]2C(=O)O[C@H]([C@H](C)C[C@@H]2CC[C@@H](OC(=O)NCCOCCOCCOCCOCCOCCOCCOCCOCCC(=O)N3CCc4cc(Cn5nc(-c6ccc7oc(N)nc7c6)c6c(N)ncnc65)ccc4C3)[C@H](OC)C2)C[C@@H](O)[C@H](C)/C=C(\C)[C@@H](O)[C@@H](OC)C(=O)[C@H](C)C[C@H](C)/C=C/C=C/C=C/1C | ultracentrifugation | human plasma | 0.5 µM | 0.057 |
| Nc1ncnc2c1c(Oc1cc(C(F)(F)F)ccn1)nn2[C@@H]1CCCC[C@H]1O | – | mouse brain tissue | – | 4.1% |
| CC(C)c1ncc(C(=O)N2CCOC3(CCN(Cc4ccc(F)c(CCNC[C@H](O)c5ccc(O)c6[nH]c(=O)sc56)c4)CC3)C2)s1 | equilibrium dialysis | rat lung homogenate | – | 0.024 |
| CC1=NN(/C(=N/c2nnc(C)s2)Nc2ccc(C)c(C)c2)C(c2cc(F)c(F)c(F)c2)S1 (centres unmarked) | – | mouse plasma | – | 0.003 |
| C[C@@H](N)COc1ccc(-c2cnc3ccc(N[C@H](C)c4cccc(F)c4)nn23)cc1 | rapid equilibrium dialysis | human plasma | – | 0.0629 |
| CC(C)(N)COCC(=O)N1CCC[C@H](C(=O)NCc2nc(-c3ccc(C(F)(F)F)cc3)cs2)C1 | plasma protein binding | rat plasma | – | 0.084 |
| Cc1cc(Nc2ccc(S(F)(F)(F)(F)F)cc2)n2ncnc2n1 | rapid equilibrium dialysis | diluted mouse plasma | 2 µM | 0.079 |
| Cc1cccc(Nc2ccccc2C(=O)O)c1C | equilibrium dialysis | human liver microsomes 0.25 mg/mL, 2% BSA | 6 h | 0.025 |
| NCCOCC(=O)N1CCC[C@H](C(=O)NCc2nc(-c3ccc(C(F)(F)F)cc3)cs2)C1 | plasma protein binding | rat plasma | – | 0.14 |
| O=C1N[C@H](c2cncc(C#Cc3ccccc3)c2)[C@@H](c2ccccc2Cl)O1 | – | monkey plasma | – | < 0.01 |
| N#C[C@@]1(c2ccc3c(N)ncnn23)O[C@H](CO)[C@@H](O)[C@H]1O | plasma protein binding | rat plasma | 1 µM | 0.971 |
| CN[C@@H](C)C(=O)N[C@H]1CN(C(=O)CC(C)C)CC[C@H]2CC[C@@H](C(=O)NC(c3ccccc3)c3ccccc3)N2C1=O | ultrafiltration | plasma | 5 µg/mL, 1 h, 37 °C | 0.195 |
| COCC(=O)N1CCC[C@H](C(=O)NCc2nc(-c3ccccc3)cs2)C1 | plasma protein binding | rat plasma | – | 0.019 |
| Cc1ccc(Nc2cnnc3ccc(-c4ccc(N5CCCN(C)CC5)cc4)cc23)cn1 | equilibrium dialysis | human plasma | 10 µM, pH 7.4 | 0.12 |
| N#Cc1ccc([C@H]2CCc3cncn32)c(F)c1 | – | plasma | – | 0.636 |
| Cn1cncc1[C@@](N)(c1ccc(Cl)cc1)c1ccc2c(c1)c(-c1cccc(Cl)c1)cc(=O)n2C | – | cancer patients, mild hepatic impairment, plasma | 50 mg twice daily | 0.0055 |
| CCOCC(=O)N1CCC[C@H](C(=O)NCc2nc(-c3ccc(C#N)nc3)cs2)C1 | plasma protein binding | rat plasma | – | 0.053 |
| C[C@H](CCC(=O)NCC(=O)O)[C@H]1CC[C@H]2[C@@H]3[C@H](O)C[C@@H]4C[C@H](OS(=O)(=O)O)CC[C@]4(C)[C@H]3CC[C@]12C | – | plasma | – | 0.0018 ± 0.0001 |
| COCC(=O)N1CCC[C@H](C(=O)NCc2nc(-c3ccc(C#N)cc3)cs2)C1 | plasma protein binding | human plasma | – | 0.075 |
| Cc1c(C(=O)O)ccc2c3n(nc12)[C@@H]1[C@H](C3)N(CC2CC2)[C@@]2(C(=O)Nc3cc(Cl)ccc32)[C@H]1c1cccc(Cl)c1F | equilibrium dialysis | Göttingen minipig, both sexes, plasma | pH 7.4 | 0.0065 |

Some of these lines once more:
| Compound | test | system | conditions | unbound fraction |
| --- | --- | --- | --- | --- |
| C[C@@H](N)COc1ccc(-c2cnc3ccc(N[C@H](C)c4cccc(F)c4)nn23)cc1 | rapid equilibrium dialysis | human plasma | – | 0.0629 |
| Cc1cc(Nc2ccc(S(F)(F)(F)(F)F)cc2)n2ncnc2n1 | rapid equilibrium dialysis | diluted mouse plasma | 2 µM | 0.079 |
| CN[C@@H](C)C(=O)N[C@H]1CN(C(=O)CC(C)C)CC[C@H]2CC[C@@H](C(=O)NC(c3ccccc3)c3ccccc3)N2C1=O | ultrafiltration | plasma | 5 µg/mL, 1 h, 37 °C | 0.195 |
| N#C[C@@]1(c2ccc3c(N)ncnn23)O[C@H](CO)[C@@H](O)[C@H]1O | plasma protein binding | rat plasma | 1 µM | 0.971 |
